Measured values of several laboratories.
Each numbered part is a random draw from the data of one study; scales do not carry over between parts.
Chain of UniProt P10721 (whole entry, unmodified, looked up): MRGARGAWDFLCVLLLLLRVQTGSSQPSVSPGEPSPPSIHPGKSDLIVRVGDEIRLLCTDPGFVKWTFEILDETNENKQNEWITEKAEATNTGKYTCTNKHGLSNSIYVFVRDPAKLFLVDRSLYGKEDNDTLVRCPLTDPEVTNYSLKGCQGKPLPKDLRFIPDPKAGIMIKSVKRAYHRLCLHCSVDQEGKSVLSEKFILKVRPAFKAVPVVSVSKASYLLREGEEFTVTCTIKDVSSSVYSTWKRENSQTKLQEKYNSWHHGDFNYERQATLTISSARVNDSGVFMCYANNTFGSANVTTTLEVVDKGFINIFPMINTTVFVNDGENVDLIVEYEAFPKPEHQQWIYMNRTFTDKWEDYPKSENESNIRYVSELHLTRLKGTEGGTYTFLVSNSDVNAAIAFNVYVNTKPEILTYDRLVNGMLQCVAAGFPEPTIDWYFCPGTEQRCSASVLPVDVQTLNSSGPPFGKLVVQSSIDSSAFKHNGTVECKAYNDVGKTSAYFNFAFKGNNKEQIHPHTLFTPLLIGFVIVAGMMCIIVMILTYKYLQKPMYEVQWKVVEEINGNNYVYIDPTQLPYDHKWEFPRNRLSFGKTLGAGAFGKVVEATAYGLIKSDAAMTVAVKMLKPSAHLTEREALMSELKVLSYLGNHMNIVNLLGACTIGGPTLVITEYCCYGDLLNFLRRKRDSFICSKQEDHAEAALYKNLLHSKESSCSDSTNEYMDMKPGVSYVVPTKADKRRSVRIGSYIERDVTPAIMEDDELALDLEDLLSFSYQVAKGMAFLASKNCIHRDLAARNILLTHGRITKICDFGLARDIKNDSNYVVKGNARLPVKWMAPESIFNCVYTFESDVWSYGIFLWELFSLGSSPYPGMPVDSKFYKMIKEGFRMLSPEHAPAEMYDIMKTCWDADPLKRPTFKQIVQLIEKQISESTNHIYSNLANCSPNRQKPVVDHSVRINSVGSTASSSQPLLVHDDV
Chain of UniProt P54756 (whole entry, looked up): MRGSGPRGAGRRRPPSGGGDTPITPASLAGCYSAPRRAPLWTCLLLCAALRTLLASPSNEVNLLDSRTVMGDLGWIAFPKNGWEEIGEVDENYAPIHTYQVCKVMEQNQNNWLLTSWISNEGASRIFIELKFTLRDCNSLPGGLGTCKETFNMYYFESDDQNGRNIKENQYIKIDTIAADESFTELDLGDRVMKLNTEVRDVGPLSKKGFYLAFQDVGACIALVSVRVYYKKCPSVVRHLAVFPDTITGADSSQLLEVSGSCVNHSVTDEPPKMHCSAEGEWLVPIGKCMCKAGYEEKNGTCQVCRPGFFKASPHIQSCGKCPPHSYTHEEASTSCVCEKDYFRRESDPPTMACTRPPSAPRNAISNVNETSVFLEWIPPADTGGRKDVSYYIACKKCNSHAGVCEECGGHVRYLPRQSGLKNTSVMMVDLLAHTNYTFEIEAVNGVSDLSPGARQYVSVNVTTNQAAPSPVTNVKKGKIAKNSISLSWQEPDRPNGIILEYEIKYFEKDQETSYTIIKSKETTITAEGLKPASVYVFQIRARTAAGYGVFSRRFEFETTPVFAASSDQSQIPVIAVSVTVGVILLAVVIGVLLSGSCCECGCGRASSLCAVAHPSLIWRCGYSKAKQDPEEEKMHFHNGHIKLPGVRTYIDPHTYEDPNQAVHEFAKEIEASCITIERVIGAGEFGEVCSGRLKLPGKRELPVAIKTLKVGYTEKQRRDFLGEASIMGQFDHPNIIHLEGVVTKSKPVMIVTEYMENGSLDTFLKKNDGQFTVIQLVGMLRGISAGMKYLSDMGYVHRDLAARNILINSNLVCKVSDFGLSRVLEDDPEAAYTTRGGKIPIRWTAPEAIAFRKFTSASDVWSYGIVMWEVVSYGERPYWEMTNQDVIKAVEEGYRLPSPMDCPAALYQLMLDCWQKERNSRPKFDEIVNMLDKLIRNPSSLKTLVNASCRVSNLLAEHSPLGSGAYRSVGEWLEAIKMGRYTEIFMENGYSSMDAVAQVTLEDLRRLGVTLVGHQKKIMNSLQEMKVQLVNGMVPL
Chain of UniProt P07948 (whole entry, looked up): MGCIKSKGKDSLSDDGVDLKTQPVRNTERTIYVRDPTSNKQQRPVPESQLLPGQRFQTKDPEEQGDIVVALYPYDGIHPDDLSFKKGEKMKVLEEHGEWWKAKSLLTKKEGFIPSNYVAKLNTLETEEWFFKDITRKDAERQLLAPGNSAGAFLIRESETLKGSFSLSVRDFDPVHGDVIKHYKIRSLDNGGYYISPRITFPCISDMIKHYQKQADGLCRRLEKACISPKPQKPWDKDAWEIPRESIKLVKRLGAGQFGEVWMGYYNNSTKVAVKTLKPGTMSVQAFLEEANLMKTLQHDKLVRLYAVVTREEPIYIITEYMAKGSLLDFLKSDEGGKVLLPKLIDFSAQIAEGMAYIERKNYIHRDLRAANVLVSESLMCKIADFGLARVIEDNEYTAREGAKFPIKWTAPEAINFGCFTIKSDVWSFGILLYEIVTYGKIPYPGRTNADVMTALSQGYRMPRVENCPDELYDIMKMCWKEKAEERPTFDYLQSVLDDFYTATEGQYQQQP
Chain of UniProt P51957 (whole entry, looked up): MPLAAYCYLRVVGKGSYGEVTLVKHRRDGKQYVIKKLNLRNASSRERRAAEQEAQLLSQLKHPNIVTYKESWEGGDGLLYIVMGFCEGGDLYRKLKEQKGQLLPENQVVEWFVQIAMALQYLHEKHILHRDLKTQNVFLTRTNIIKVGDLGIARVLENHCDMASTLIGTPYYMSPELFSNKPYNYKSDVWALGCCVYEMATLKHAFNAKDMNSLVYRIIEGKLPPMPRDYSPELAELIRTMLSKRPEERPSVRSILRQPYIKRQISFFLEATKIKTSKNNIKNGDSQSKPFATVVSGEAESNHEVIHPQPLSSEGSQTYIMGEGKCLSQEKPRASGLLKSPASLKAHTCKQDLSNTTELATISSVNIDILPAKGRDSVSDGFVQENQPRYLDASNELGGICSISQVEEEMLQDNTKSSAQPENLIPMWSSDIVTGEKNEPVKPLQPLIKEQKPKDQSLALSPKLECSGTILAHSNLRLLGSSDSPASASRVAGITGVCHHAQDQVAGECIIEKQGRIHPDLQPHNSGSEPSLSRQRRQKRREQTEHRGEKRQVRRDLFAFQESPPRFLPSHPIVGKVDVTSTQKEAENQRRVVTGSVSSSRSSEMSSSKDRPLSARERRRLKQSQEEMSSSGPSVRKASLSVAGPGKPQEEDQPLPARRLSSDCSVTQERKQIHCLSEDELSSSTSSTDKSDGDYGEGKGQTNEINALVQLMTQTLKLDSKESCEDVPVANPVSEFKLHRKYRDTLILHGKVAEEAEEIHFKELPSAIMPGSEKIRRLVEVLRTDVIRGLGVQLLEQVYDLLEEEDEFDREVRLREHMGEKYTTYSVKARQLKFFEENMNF
Chain of UniProt Q9HAZ1 (whole entry, looked up): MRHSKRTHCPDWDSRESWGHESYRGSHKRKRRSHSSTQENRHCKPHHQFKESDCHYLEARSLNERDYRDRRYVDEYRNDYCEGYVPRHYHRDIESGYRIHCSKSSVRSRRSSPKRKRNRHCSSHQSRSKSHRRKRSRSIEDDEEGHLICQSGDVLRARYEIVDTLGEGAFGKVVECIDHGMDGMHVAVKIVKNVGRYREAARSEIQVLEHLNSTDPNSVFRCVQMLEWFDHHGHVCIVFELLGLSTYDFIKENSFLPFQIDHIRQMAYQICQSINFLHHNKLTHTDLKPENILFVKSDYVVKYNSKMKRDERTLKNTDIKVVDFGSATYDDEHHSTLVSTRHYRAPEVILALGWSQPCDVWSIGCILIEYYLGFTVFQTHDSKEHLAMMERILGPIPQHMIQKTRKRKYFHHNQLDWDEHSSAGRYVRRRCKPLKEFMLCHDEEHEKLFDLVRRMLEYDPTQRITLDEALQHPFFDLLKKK
Chain of UniProt P48729 (whole entry, looked up): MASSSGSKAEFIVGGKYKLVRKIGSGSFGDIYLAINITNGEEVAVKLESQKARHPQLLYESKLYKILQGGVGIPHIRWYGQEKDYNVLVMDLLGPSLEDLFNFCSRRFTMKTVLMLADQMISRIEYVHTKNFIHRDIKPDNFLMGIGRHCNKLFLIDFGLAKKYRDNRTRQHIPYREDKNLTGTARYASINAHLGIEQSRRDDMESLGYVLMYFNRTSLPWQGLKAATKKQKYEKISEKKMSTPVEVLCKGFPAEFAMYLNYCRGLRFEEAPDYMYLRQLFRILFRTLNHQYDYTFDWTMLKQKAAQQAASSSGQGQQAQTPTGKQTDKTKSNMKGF
Chain of UniProt Q06187 (whole entry, looked up): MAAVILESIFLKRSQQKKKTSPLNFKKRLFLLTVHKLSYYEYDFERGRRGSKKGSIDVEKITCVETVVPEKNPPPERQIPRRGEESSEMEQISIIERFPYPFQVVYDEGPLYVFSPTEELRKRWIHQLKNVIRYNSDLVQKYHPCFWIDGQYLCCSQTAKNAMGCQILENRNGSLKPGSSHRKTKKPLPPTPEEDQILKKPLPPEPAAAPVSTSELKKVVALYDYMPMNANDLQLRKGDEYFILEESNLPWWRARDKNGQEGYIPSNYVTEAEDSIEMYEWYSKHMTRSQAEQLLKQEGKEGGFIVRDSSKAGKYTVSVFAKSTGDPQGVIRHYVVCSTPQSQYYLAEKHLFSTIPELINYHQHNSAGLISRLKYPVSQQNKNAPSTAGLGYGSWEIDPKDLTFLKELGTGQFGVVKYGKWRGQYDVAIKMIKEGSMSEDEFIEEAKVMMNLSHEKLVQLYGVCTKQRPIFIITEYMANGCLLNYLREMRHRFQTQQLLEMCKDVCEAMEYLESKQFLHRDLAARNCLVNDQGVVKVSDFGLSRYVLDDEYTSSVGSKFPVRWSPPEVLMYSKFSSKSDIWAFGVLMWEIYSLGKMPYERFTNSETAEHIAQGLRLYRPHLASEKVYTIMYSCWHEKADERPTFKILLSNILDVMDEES

Series 1 — SMILES: c1ccc(-c2n[nH]c3c2oc2ccccc23)cc1; read-out: enzyme activity; action: inhibitor; concentration: 0.5 µM; baseline: control; measurement: remaining activity
target = Mast/stem cell growth factor receptor Kit (KIT, Homo sapiens, UniProt P10721); result = 38%
target = Interleukin-1 receptor-associated kinase 4 (IRAK4, Homo sapiens, UniProt Q9NWZ3); result = 92.7%
target = Tyrosine-protein kinase BTK (BTK, Homo sapiens, UniProt Q06187); result = 96.4%
target = Cyclin-dependent kinase 9, with cyclin T1 (CDK9, Homo sapiens, UniProt P50750); result = 83.9%
target = Mitogen-activated protein kinase 12 (MAPK12, Homo sapiens, UniProt P53778); result = 100%
target = Serine/threonine-protein kinase Nek4 (NEK4, Homo sapiens, UniProt P51957); result = 92.9%
target = Leucine-rich repeat serine/threonine-protein kinase 2 (LRRK2, Homo sapiens, UniProt Q5S007); result = 91.4%
target = RAC-gamma serine/threonine-protein kinase (AKT3, Homo sapiens, UniProt Q9Y243); result = 84.4%
target = Protein kinase C delta type (PRKCD, Homo sapiens, UniProt Q05655); result = 96.7%
target = MAP kinase-interacting serine/threonine-protein kinase 2 (MKNK2, Homo sapiens, UniProt Q9HBH9); result = 70%
target = Serine/threonine-protein kinase Chk1 (CHEK1, Homo sapiens, UniProt O14757); result = 117%
target = Serine/threonine-protein kinase WNK2 (WNK2, Homo sapiens, UniProt Q9Y3S1); result = 102%
target = Casein kinase I isoform alpha (CSNK1A1, Homo sapiens, UniProt P48729); result = 73.8%
target = cGMP-dependent protein kinase 1 (PRKG1, Homo sapiens, UniProt Q13976); result = 102%
target = Serine/threonine-protein kinase PLK2 (PLK2, Homo sapiens, UniProt Q9NYY3); result = 102%
target = Dual specificity mitogen-activated protein kinase kinase 6 (MAP2K6, Homo sapiens, UniProt P52564); result = 92.9%
target = Mitogen-activated protein kinase kinase kinase kinase 2 (MAP4K2, Homo sapiens, UniProt Q12851); result = 61.8%
target = Protein kinase C iota type (PRKCI, Homo sapiens, UniProt P41743); result = 85.9%
target = Ephrin type-A receptor 5 (EPHA5, Homo sapiens, UniProt P54756); result = 92.1%
target = Tyrosine-protein kinase Lyn (LYN, Homo sapiens, UniProt P07948); result = 108%
target = Mitogen-activated protein kinase 13 (MAPK13, Homo sapiens, UniProt O15264); result = 109%
target = Casein kinase II subunit alpha (CSNK2A1, Homo sapiens, UniProt P68400); result = 87.2%

Series 2 — read-out: cell-free assay; method: competition with immobilised ligand; concentration: 1 µM; measurement: remaining binding
Compound: CC(=O)c1c(NS(C)(=O)=O)c2cc(-c3ccc(Cl)cc3)c(-c3ccc(Cl)cc3Cl)nc2n(C)c1=O
target = TRAF2 and NCK-interacting protein kinase (TNIK, Homo sapiens, UniProt Q9UKE5); result = 93%
target = Fibroblast growth factor receptor 4 (FGFR4, Homo sapiens, UniProt P22455); result = 100%
target = Serine/threonine-protein kinase 38 (STK38, Homo sapiens, UniProt Q15208); result = 77%
target = RAF proto-oncogene serine/threonine-protein kinase (RAF1, Homo sapiens, UniProt P04049); result = 100%
target = Serine/threonine-protein kinase Sgk3 (SGK3, Homo sapiens, UniProt Q96BR1); result = 79%
target = Serine/threonine-protein kinase DCLK3 (DCLK3, Homo sapiens, UniProt Q9C098); result = 100%
target = Serine/threonine-protein kinase 3 (STK3, Homo sapiens, UniProt Q13188); result = 100%
target = Ribosomal protein S6 kinase alpha-2, C-terminal kinase domain (RPS6KA2, Homo sapiens, UniProt Q15349); result = 80%
target = Ephrin type-A receptor 5 (EPHA5, Homo sapiens, UniProt P54756); result = 100%
target = Dual specificity protein kinase CLK4 (CLK4, Homo sapiens, UniProt Q9HAZ1); result = 100%
target = Tyrosine-protein kinase ABL1, non-phosphorylated (ABL1, Homo sapiens, UniProt P00519, H396P); result = 100%
target = Mast/stem cell growth factor receptor Kit (KIT, Homo sapiens, UniProt P10721, A829P); result = 96%
target = Serine/threonine-protein kinase NLK (NLK, Homo sapiens, UniProt Q9UBE8); result = 72%
target = Mast/stem cell growth factor receptor Kit (KIT, Homo sapiens, UniProt P10721, D816V); result = 100%

Series 3 — organism: Sarcocystis neurona; read-out: parasite growth; concentration: 10 µM; time: 96 h; setting: first screen; baseline: untreated; measurement: log2 fold change
SMILES = CC(=O)O[C@]1(C(C)=O)CC[C@H]2[C@@H]3C=C(C)C4=CC(=O)CC[C@]4(C)[C@H]3CC[C@@]21C; result = -0.33
SMILES = O=C1CC2(CCCC2)CC(=O)N1CCCCN1CCN(c2ncccn2)CC1; result = 0.28
SMILES = CC(=O)Nc1nnc(S(N)(=O)=O)s1; result = -0.17
SMILES = O=S(=O)(O)CCS; result = 0.1
SMILES = Nc1c2c(nc3c1CCC3)CCCC2; result = -0.2
SMILES = CC(=O)OCC(=O)[C@@]1(O)CC[C@H]2[C@@H]3C[C@H](C)C4=CC(=O)C=C[C@]4(C)[C@H]3[C@@H](O)C[C@@]21C; result = -0.05
SMILES = Nc1ccc(O)c(C(=O)O)c1; result = 0.12
SMILES = O=C(c1ccc(OCCN2CCCCC2)cc1)c1c(-c2ccc(O)cc2)sc2cc(O)ccc12; result = -0.27
SMILES = CC(=O)OCC(=O)NCCCOc1cccc(CN2CCCCC2)c1; result = -0.09
SMILES = COc1cc([C@@H]2c3cc4c(cc3[C@H](O)[C@H]3COC(=O)[C@H]23)OCO4)cc(OC)c1OC; result = -1.36

Series 4 — host: human; sample: microsomes or S9; concentration: 2 µM; time: 0.5 h; measurement: remaining compound
Compound = CCOc1ccc(CCNS(=O)(=O)c2ccc3c(c2)C(C)(C)C(=O)N3)cc1OCC; result = < 1%
Compound = COc1c(C)cnc(Cn2cnc3oc(C)c(C)c3c2=O)c1C; result = 31.2%
Compound = O=C(OCc1cc(Cl)cc2c1OCOC2)c1cc2ccccc2[nH]1; result = > 99.9%
Compound = CCc1ncnc(Nc2cnn(Cc3nnc4n3CCCC4)c2)c1F; result = 94.3%
Compound = COc1cc(NC(=O)N2CCC(Cn3cncn3)CC2)ncn1; result = > 100%
Compound = CCc1ccccc1NC(=O)NCCNc1nc(C)cc(N2CCCCC2)n1; result = 8.55%
Compound = O=C(Nc1ccc2c(c1)C(=O)N1CCC[C@H]1C(=O)N2)c1cc(-c2ccc3c(c2)CCO3)n[nH]1; result = 59.6%
Compound = CCN(CC)c1ccc(-c2nnc(-c3ccc(N(CC)CC)cc3)o2)cc1; result = 9.12%
Compound = COC(c1ccc(Cl)cc1)(c1ccc(Cl)cc1)C(Oc1nccc(C)n1)C(=O)O (stereo not shown); result = 63%
Compound = CCOC(=O)c1cccc(NC(=O)CC2C(=O)N(c3ccc(Cl)cc3)C(=O)N2C2CCCC2)c1 (stereo not shown); result = 4.33%
Compound = CC1(C)Cc2ccccc2C(c2sc3nc4c(cc3c2N)CCC4)=N1; result = 0.559%
Compound = C[C@H]1CN2C[C@H](O)CC2CN1Cc1cc2c(cc1Cl)OCO2 (stereo partly shown); result = 79.2%
Compound = CCC(CC)C(=O)Nc1c2c(nc3c1CCC3)CCCC2; result = 20.1%
Compound = Clc1cccc(C(c2ccccc2)N2CCN(c3nn4nnnc4c4ccccc34)CC2)c1 (stereo not shown); result = 89.9%
Compound = COc1ccc(-n2ccc3cc(N4CCCCC4)ccc32)cc1Cl; result = 95.9%

Excerpt of the above (series 2):
target = Mast/stem cell growth factor receptor Kit (KIT, Homo sapiens, UniProt P10721, A829P); result = 96%
target = Serine/threonine-protein kinase Sgk3 (SGK3, Homo sapiens, UniProt Q96BR1); result = 79%
target = Ribosomal protein S6 kinase alpha-2, C-terminal kinase domain (RPS6KA2, Homo sapiens, UniProt Q15349); result = 80%
target = Serine/threonine-protein kinase NLK (NLK, Homo sapiens, UniProt Q9UBE8); result = 72%
target = Serine/threonine-protein kinase 38 (STK38, Homo sapiens, UniProt Q15208); result = 77%
